Published values of several laboratories.
A part holds a random share of what one study measured.

Set 1
Target: Histone acetyltransferase KAT6A, both winged helices, GST fusion (KAT6A, Homo sapiens, UniProt Q92794, residues 1-181)
Technique: protein binding microarray
Molecule type: double-stranded DNA, one strand shown
Medium: in vitro
Tested at: not given
Notes: 8-mer, flanks averaged, mean of 2 arrays, mostly near background
Reference: not given
Reading: higher = stronger binding
Residues (chain): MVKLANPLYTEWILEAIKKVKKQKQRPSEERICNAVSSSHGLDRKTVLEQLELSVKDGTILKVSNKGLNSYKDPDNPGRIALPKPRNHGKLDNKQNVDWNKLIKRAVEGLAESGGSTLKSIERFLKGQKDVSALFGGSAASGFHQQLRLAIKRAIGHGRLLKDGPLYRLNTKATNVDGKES
| Oligonucleotide | E-score |
| --- | --- |
| GACAAATA | -0.114 |
| CAAGGCGC | 0.291 |
| GAACATGC | 0.0442 |
| AATGCGGA | 0.123 |
| AAAGTTCG | -0.112 |
| GCCCCAGC | -0.109 |
| GCGTCGAC | 0.0845 |
| CATTAAAG | -0.146 |
| AGTCACAA | -0.127 |
| AATGTCGA | -0.18 |
| AACGGGCC | 0.181 |
| ATACCTTG | -0.038 |
| CTATGGAA | -0.163 |
| CGGAAAAG | 0.16 |
| CTGGTGTA | -0.175 |
| AGGTTGTC | -0.148 |
| CACGATAA | -0.0925 |
| GGCTTTCA | -0.0137 |
| CAAAATCG | -0.0644 |
| AGACTTGA | -0.232 |
| AAAGACGG | 0.109 |
| ACACCCCC | -0.124 |
| TGTTTAAA | -0.0698 |
| CCTCCAGA | -0.126 |
| TATTTTAA | -0.0517 |

Set 2
Target: RNA binding protein fox-1 homolog 2, RRM domain, GST-SBP tag (RBFOX2, Homo sapiens, UniProt O43251-10, residues 100-194)
Technique: RNA Bind-n-Seq
Molecule type: RNA
Medium: in vitro
Tested at: 365 nM
Notes: natural RNA segment, single round, ends assumed
Reference: no-protein control
Reading: higher = stronger binding
Residues (chain): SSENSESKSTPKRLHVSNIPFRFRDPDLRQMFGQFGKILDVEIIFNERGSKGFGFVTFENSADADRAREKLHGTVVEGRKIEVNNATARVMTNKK
| Oligonucleotide | RBNS enrichment (R) |
| --- | --- |
| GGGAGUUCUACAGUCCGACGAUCCAGGCAGAGGGUCCUGCGCCCCCCAGCACUCCCCUGCCCUCUCCCACACCUCAGGUCCAGCGCACACUUCCUCCUUGCAUAGCAGGUGGGAGCAGACUUCUAAUGGACAGUGGAAUUCUCGGGUGCCAA | 0.615 |
| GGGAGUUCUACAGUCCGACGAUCUUAUACUGUAAAUUAUGCAUUAUAAAGAGUUCAUUUAAGGAAAAUUACUUGGUACAAUAAUUAUUGUAAUUAAGAGAUGUAGCCUUUAUUAAAAUUUUAUAUUUUUCAAAUGGAAUUCUCGGGUGCCAA | 1.23 |
| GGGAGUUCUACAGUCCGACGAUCUUUGUGCCAACACACGGAGUCAUUCUGGCUCUCUGCUGAGGCCCCUGUUUUCUGGCAGGUGCCCUCCUUGGAAACUGGUUUUGGCUCUGAUCAGCGGUUCUUUUUGCAGCUGGAAUUCUCGGGUGCCAA | 0.268 |
| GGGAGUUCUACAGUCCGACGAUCGUUUUUUAUCAUAUAUGCAUUAAAAGUAUUAUGUUUAUCAACAUUUGCUGCUAUUGUGUUAACAUUUUUGUUUUGCUUGCCAUGAGGCCCCAUUUCCACCUCCCAGUAAAUGGAAUUCUCGGGUGCCAA | 1.22 |
| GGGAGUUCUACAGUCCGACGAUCGCAAGCUGUAGCCAGAGGUACCAGCUUCGCCUGGGGCUUCAAGAACCUCCCAUCUAUCCCCAUUCCUGAGACAGGAGUUACAGUCCCUUUUGGCCCUCACAUCCAAUAAAUGGAAUUCUCGGGUGCCAA | 0.415 |
| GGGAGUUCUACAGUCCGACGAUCCAUUACCGUGUACCUUUCCCAUUGUGGUCAUGCCAUUUGGCAGGGGGAGAAUGGGAGGCUUGGCCUUCUUUGUGAGGCAGUGUGAGCAGAAGCUGAUGCCAGCAUGUCACUGGAAUUCUCGGGUGCCAA | 2.68 |
| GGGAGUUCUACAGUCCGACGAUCAUUUAAGCUCCCCAGGAAAUCCCAUGACAAACUGGCCUCUGGCUGGCGCGCUGAUUAGACUUCAGUUCCUGAAAAGGACCAGUGGAGGGAAGAGCUAUACUUCUGGAGAAUGGAAUUCUCGGGUGCCAA | 0.257 |
| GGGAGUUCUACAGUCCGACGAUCCCAAAUGGUGGGGACCCUGAGCCCAGCUCUGACCAGGUAGAGCCUGUGCAGCCUGGGCUGCUGUCAUUGCCCUCCAGUAAGGGCUCAGGGUUUUGCUUUUAGUCUCCCCUUGGAAUUCUCGGGUGCCAA | 0.375 |

Set 3
Target: Fragile X messenger ribonucleoprotein 1, C-terminal low-complexity region (Fmr1, Mus musculus, UniProt P35922)
Technique: RNA Bind-n-Seq
Molecule type: RNA
Medium: in vitro
Tested at: 200 nM
Notes: whole 134-nt RNA, ends assumed
Together with: 150 mM LiCl
Reference: input library
Reading: higher = stronger binding
All molecules: 7-deaza-guanosine replaces G
| Oligonucleotide | log2 enrichment |
| --- | --- |
| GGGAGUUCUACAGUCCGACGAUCUCAUGUAUAGACAACGCCAUUAUUGACGAGAUCACUCCCAAGCGGAUUGGAGAUUGUCCCAAUAUUUAGACCUAUAGCAAGGCCUUGGGAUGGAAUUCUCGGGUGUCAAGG | -0.231 |
| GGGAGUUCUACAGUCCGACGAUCAAGUCCUGUGCUACACAUCGUAUGUACCGAAUCGGGGUUUGGGGUGGGGUUUGGGGAAAGUAUUAUGUUACGCCGUUCGGAUCUGCACUUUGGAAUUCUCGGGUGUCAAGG | -0.992 |
| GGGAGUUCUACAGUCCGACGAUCUCUGAGCAAUUGAAUGCCCUAAACAAGGCUUACCAUGACCUUUGUGAUGGUUCUGCAAAUCAGCUUCAGCAGCUUCAGAGCCAGUUGGCUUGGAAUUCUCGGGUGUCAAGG | -3.34 |
| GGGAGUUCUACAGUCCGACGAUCUGGGAGGUGGAUUUUGUUUAUUUUUUUAGCUCAUUUCCAGGGCUGGGAAUUUUUUUUUAAUAUGUGUCAUGAAUAAAGUUGUUUUUGAAAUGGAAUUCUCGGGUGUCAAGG | -0.175 |
| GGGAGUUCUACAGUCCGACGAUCAGUCCUGUGCUACACAUCGUAUGUACCGAAUCGGCCCCCGGCCCCCGGCCCCCGGGGAAAGUAUUAUGUUACGCCGUUCGGAUCUGCACUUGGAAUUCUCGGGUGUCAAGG | -0.28 |
| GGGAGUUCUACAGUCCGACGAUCCUCAAGUCCUGUGCUACACAUCGUAUGUACCGAAUCGGCCGGGCCGGGGCCGGAAAGUAUUAUGUUACGCCGUUCGGAUCUGCACUUCCAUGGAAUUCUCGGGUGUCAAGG | 0.684 |
| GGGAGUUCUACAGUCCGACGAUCUCAAGUCCUGUGCUACACAUCGUAUGUACCGAAUCGGUUUUUGGUGGAAAAAGGAAAGUAUUAUGUUACGCCGUUCGGAUCUGCACUUCCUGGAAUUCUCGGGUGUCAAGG | -0.933 |
| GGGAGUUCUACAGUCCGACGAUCCCUCAAGUCCUGUGCUACACAUCGUAUGUACCGAAUCGGGGAGGAGGGGAGGGAAAGUAUUAUGUUACGCCGUUCGGAUCUGCACUUCCAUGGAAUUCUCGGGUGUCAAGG | -0.548 |

Set 4
Target: Interferon regulatory factor 5, full length, phosphomimetic (IRF5, Homo sapiens, UniProt Q13568-2, residues 1-514, K96S/S451D/S453D/S456D/S462D)
Technique: protein-binding microarray
Molecule type: double-stranded DNA, one strand shown
Medium: in vitro
Tested at: 250 nM
Notes: 60-bp whole probe
Together with: salmon DNA 0.4 mg/ml
Reference: random background probes
Reading: higher = stronger binding
All sequences stand within: GCCTAGCAC … GTCTTGATTCGCTTGACGCTGCTG
| Oligonucleotide | log fluorescence [z-score] |
| --- | --- |
| GACGGTTTCGACACTGGGGACGTGCTA | 4.42 |
| GTCGGTCTCGGACTGGGGACGTGCTAG | -0.353 |
| TTAGATTTCGGGCTTCGATTAGTGCTA | 3.27 |
| TTTCTAATGTTTTTTAAAGTGTGCTAG | 3.5 |
| AGGACTCGAATCCTGCAGGGGTGCTAG | -0.535 |
| GACGATTCCAGTTTCGAGATGTGCTAG | 6.14 |
| GACGGTATCGGGTTTCGGCACGTGCTA | 4.81 |
| TCAATATTCTGCTTTGCACTGTGCTAG | 0.319 |
| GACTAACTGAGACTGGAGACGTGCTAG | -0.345 |
| GTAGGTATCGACTTTCGGTTAGTGCTA | 10.1 |
| TTAGGTTTCCTTTTCATTTAGTGCTAG | 2.53 |
| AGAATGATCTTCCTTCATGGCGTGCTA | 0.288 |
| GGTTTTTACTTTCTGAATGCGTGCTAG | 4.15 |
| TTAGATATCAGTCCCGATTAGTGCTAG | 0.932 |
| GACGGACTGAGACTGGAGACGTGCTAG | -0.39 |
| TCAGGTCTTCACTTGGCACTGTGCTAG | 0.00359 |
| TTAGAACTGAGTATCGAGTAGTGCTAG | 2.39 |

For quick reference, copied from above (set 4):
| Oligonucleotide | log fluorescence [z-score] |
| --- | --- |
| TTAGGTTTCCTTTTCATTTAGTGCTAG | 2.53 |
| GACGGTTTCGACACTGGGGACGTGCTA | 4.42 |
| TTTCTAATGTTTTTTAAAGTGTGCTAG | 3.5 |
| TCAGGTCTTCACTTGGCACTGTGCTAG | 0.00359 |
